Assay results from different studies.
Each line is one published result; not all experiments were run side by side. Values joined by “and” are separate records of one study, mostly repeats; a detail may differ. ± marks the error that the study gave.
CASP9: Caspase-9 (CASP9, Homo sapiens, UniProt P55211)
CASP4: Caspase-4 (CASP4, Homo sapiens, UniProt P49662)
USP5: Ubiquitin carboxyl-terminal hydrolase 5 (USP5, Homo sapiens, UniProt P45974)

SMILES | target or system | assay | system | conditions | how to read | endpoint | result
CC(=O)N[C@@H](CC(=O)O)C(=O)N[C@@H](CCC(=O)O)C(=O)N[C@H](C(=O)N[C@@H](CC(=O)O)C(=O)COC(=O)c1c(C)cccc1C)[C@@H](C)OCc1ccccc1 | CASP9 | enzyme activity, inhibitor |  |  |  | kinact/KI | 8200 M⁻¹ s⁻¹
O=C1c2sc(-c3ccc(N4CCC(CO)CC4)nc3F)nc2CCN1c1cccnc1 | TAR DNA-binding protein 43, aggregated (TARDBP, Homo sapiens, UniProt Q13148) | radioligand binding | control brain sarkosyl-insoluble extract | 72.89 nM |  | specific binding | 0.028 nM
NS(=O)(=O)c1nnc(N2C(=O)c3cccc4c(N5CCOCC5)ccc(c34)C2=O)s1 | Carbonic anhydrase 2 (CA2, Homo sapiens, UniProt P00918) | binding |  |  |  | emission maximum | 547 nm
CC(=O)N[C@@H](CCCNC(=N)N)C(=O)N[C@H](C(=O)N[C@@H](CCCCN)C(=O)N[C@@H](CO)C(=O)N[C@@H](CCCNC(=N)N)C(=O)N[C@H](C(=O)N[C@@H](Cc1c[nH]c2ccccc12)C(=O)N[C@@H](C)C(=O)N1Cc2ccccc2C[C@H]1C(N)=O)[C@@H](C)OP(=O)(O)O)[C@@H](C)O | 14-3-3 protein epsilon (Homo sapiens, UniProt P62258) | binding, SPR |  |  |  | koff | 0.043 s⁻¹
CC(=O)N[C@@H](Cc1c[nH]c2ccccc12)C(=O)N[C@@H](CCCCN)C(=O)N[C@@H](CCC(=O)O)C(=O)N[C@@H](CC(=O)O)C(=O)COC(=O)c1c(C)cccc1C | CASP4 | enzyme activity, inhibitor |  |  |  | kinact/KI | 20400 M⁻¹ s⁻¹
CC(=O)Nc1ccc(C2CCCCC2)cc1 |  | liver microsome stability | dog liver microsomes | 1 µM |  | hepatic clearance | 30 mL/min/kg
CC(=O)N[C@H](CCc1ccccc1)C(=O)N[C@@H](CCC(=O)O)C(=O)N[C@@H](CCC(N)=O)C(=O)N[C@@H](CC(=O)O)C(=O)COC(=O)c1c(C)cccc1C | CASP9 | enzyme activity, inhibitor |  |  |  | kinact/KI | 11500 M⁻¹ s⁻¹
O=C1N/C(=N\c2ccc(F)cc2C(=O)O)S/C1=C\c1ccccc1 | Dihydroorotate dehydrogenase (quinone), mitochondrial (DHODH, Homo sapiens, UniProt Q02127) | enzyme activity, inhibitor, DCIP reduction |  | 0.1 µM | higher = more activity | reaction rate | -39 a.u.
CCCCCC(O)/C=C/C=O (stereo not shown) | WD repeat domain phosphoinositide-interacting protein 3 (WDR45B, Homo sapiens, UniProt Q5MNZ6) | competitive isoTOP-ABPP | proteome, soluble, MDA-MB-231 | 100 µM, 60 min, with: iodoacetamide probe | baseline: DMSO over compound-treated, higher = stronger cysteine blockade | isoTOP-ABPP competition ratio | 2.7
O=C(NC1(O)C(=O)c2ccccc2C1=O)c1ccc(C(F)(F)F)cc1 | USP5 | enzyme activity, inhibitor |  | 17 µM |  | inhibition | 20%
COC(=O)c1cccc(C(=O)c2n[nH]c3ccccc23)c1 | Aryl hydrocarbon receptor (AHR, Homo sapiens, UniProt P35869) | reporter gene, agonist, XRE luciferase | HepG2 |  | baseline: ITE | Emax | 74 ± 8%
CC[C@H](C)[C@H](NC(=O)[C@H](CC(=O)O)NC(C)=O)C(=O)N[C@H](C(=O)N[C@H](C(=O)N[C@@H](CCCNC(=N)N)C(=O)N[C@@H](Cc1ccc(O)cc1)C(=O)N[C@@H](CC(N)=O)C(=O)NCC(=O)N[C@@H](CCCCN)C(=O)N[C@H](C(=O)N[C@@H](Cc1c[nH]c2ccccc12)C(=O)N[C@@H](Cc1c[nH]c2ccccc12)C(=O)N[C@@H](CCCNC(=N)N)C(=O)O)C(C)C)[C@@H](C)O)[C@@H](C)O | Insulin (INS, Bos taurus, UniProt P01317) | circular dichroism | insulin-peptide complex | concentration not given, 800 min, 62 °C, heat incubation, with: insulin 350 µM |  | random coil content | 22%
CC(=O)N[C@@H](CCC(N)=O)C(=O)N[C@@H](CC(C)C)C(=O)N1CCC[C@H]1C(=O)N[C@@H](CC(=O)O)C(=O)COC(=O)c1c(C)cccc1C | CASP4 | enzyme activity, inhibitor |  |  |  | kinact/KI | 900 M⁻¹ s⁻¹
[3H]C([3H])([3H])OC1(C2=NCCN2)COc2ccccc2O1 (stereo not shown) | Alpha-2C adrenergic receptor (Mus musculus, UniProt Q01337, L10D) | radioligand binding | HEK293 membranes | α2c(L10D)-AR mutant |  | Bmax | 1.29 ± 0.31 pmol/mg protein
COc1ccc(N(N=C2Sc3ccccc3C2=O)C(C)=O)cc1 | USP5 | enzyme activity, inhibitor |  | 17 µM |  | inhibition | 61%
O=C(NCc1cccc(Cl)c1)c1ccc(C2CCCCC2)cc1 |  | liver microsome stability | dog liver microsomes | 1 µM |  | hepatic clearance | 28 mL/min/kg
CC(=O)NCCCC[C@H](NC(C)=O)C(=O)N[C@@H](CCCC(=O)O)C(=O)N[C@@H](C)C(=O)N[C@@H](CC(=O)O)C(=O)COC(=O)c1c(C)cccc1C | CASP9 | enzyme activity, inhibitor |  |  |  | kinact/KI | 84800 M⁻¹ s⁻¹
CN(Cc1cc(C2CC2)on1)C(=O)c1cccc(-c2ccc3c(c2)CCO3)c1 | Acetyl-coenzyme A synthetase, cytoplasmic (ACSS2, Homo sapiens, UniProt Q9NR19) | enzyme activity, inhibitor, coupled pyrophosphate |  | 200 µM | higher is more activity | reaction rate | 0.00244 a.u.
COc1c(Cl)cccc1Nc1c(-c2ccncc2C#C[C@@]2(C)CCCN2C(=O)/C=C/CN(C)C)[nH]c2c1C(=O)NCC2 | Tyrosine-protein kinase ABL1 (ABL1, Homo sapiens, UniProt P00519, M351T) | binding, competition with immobilised ligand |  | 3 µM |  | remaining binding | 60%
CC1CCc2c(N)nc(N)nc2C1 (stereo not shown) | Dihydrofolate reductase (folA, Escherichia coli, UniProt P0ABQ4) |  |  | concentration not given, ternary complex with NADPH |  | major state population | 97.5 ± 0.1%
CCCCCCCCCCCCCCCC(=O)OCC(CSC[C@H](N)C(=O)N[C@@H](CO)C(=O)N[C@@H](CCCCN)C(=O)N[C@@H](CCCCN)C(=O)N[C@@H](CCCCN)C(=O)N[C@@H](CCCCN)C(=O)NCCCCCC(=O)N[C@@H](CCCCN)C(=O)N[C@@H](CC(C)C)C(=O)N[C@H](C(=O)N[C@@H](Cc1ccccc1)C(=O)N[C@@H](Cc1ccccc1)C(=O)N[C@@H](Cc1ccc2ccccc2c1)C(=O)O)C(C)C)OC(=O)CCCCCCCCCCCCCCC (stereo partly shown) | Amyloid-beta precursor protein, fibrillar amyloid-beta (APP, Homo sapiens, UniProt P05067) | TEM |  | 2.0 eq, 18 h, fibril 4, with: APP 20 µM |  | fibril diameter | 21.2 nm
CCCCCC=CC=C1C(=O)C=CC1CC=CCCCC(=O)O (stereo not shown) | MIF4G domain-containing protein (MIF4GD, Homo sapiens, UniProt A9UHW6) | competitive isoTOP-ABPP, item: MIF4GD cysteine peptide | proteome, soluble, MDA-MB-231 | 100 µM, with: iodoacetamide probe | baseline: DMSO over compound-treated, higher = stronger cysteine blockade | isoTOP-ABPP competition ratio | 3.2
CC[C@H](C)[C@@H]1NC(=O)[C@H](Cc2ccccc2)NC(=O)[C@H](CCC(=O)O)NC(=O)[C@H](CCCNC(=N)N)NC(=O)CNC(=O)[C@@H](NC(=O)[C@H](CC(C)C)NC(=O)[C@H](CCCNC(=N)N)NC(=O)[C@@H](NC(=O)CNC(=O)[C@H](Cc2ccc(O)cc2)NC(=O)[C@@H]2CCCN2C(=O)[C@H](C)NC(=O)[C@H](C)NC(=O)[C@@H](N)CCCNC(=N)N)C(C)C)CSSC[C@@H]2NC(=O)[C@@H](NC(=O)[C@H](CO)NC(=O)[C@H](CO)NC(=O)[C@H](CO)NC(=O)[C@H](CC(C)C)NC(=O)CNC(=O)[C@H](C)NC(=O)[C@H](CC(C)C)NC(=O)[C@@H](NC(=O)[C@@H](N)CC(=O)O)C(C)C)CSSC[C@H](NC(=O)CNC(=O)[C@H](Cc3c[nH]c4ccccc34)NC(=O)[C@H](CCCCN)NC2=O)C(=O)N[C@@H](CO)C(=O)N[C@@H](CCCCN)C(=O)N[C@@H](CO)C(=O)N[C@@H](CCC(=O)O)C(=O)N[C@@H]([C@@H](C)CC)C(=O)N[C@@H](CO)C(=O)N[C@@H](CO)C(=O)N[C@@H](CC(C)C)C(=O)N[C@H](C(=O)O)CSSC[C@@H](C(=O)NCC(=O)NCC(=O)N[C@@H](CO)C(=O)N[C@@H](CCCNC(=N)N)C(=O)N[C@@H](Cc2c[nH]c3ccccc23)C(=O)O)NC(=O)[C@H]([C@@H](C)O)NC(=O)[C@H](Cc2ccccc2)NC(=O)[C@H]([C@@H](C)CC)NC(=O)[C@H](C(C)C)NC(=O)[C@H](C)NC(=O)[C@H](CCCNC(=N)N)NC1=O | Relaxin-3 receptor 2 (RXFP4, Homo sapiens, UniProt Q8TDU9, E100A) |  |  | E100A mutant | baseline: wild type | Δemax | inactive
CC[C@H](C)[C@H](NC(=O)[C@H](Cc1ccccc1)NC(=O)[C@H](CCC(=O)O)NC(=O)[C@H](CCCCN)NC(=O)[C@H](C)NC(=O)[C@H](C)NC(=O)[C@H](CCC(N)=O)NC(=O)CNC(=O)[C@H](CCC(=O)O)NC(=O)[C@H](CC(C)C)NC(=O)[C@H](Cc1ccc(O)cc1)NC(=O)[C@H]1CCC[C@@H]1NC(=O)[C@H](CO)NC(=O)C(C)(C)NC(=O)[C@H](CC(=O)O)NC(=O)[C@H](CO)NC(=O)[C@@H](NC(=O)[C@H](Cc1ccccc1)NC(=O)[C@@H](NC(=O)CNC(=O)[C@H](CCC(=O)O)NC(=O)[C@H](C)NC(=O)[C@@H](N)Cc1c[nH]cn1)[C@@H](C)O)[C@@H](C)O)C(=O)N[C@@H](C)C(=O)N[C@@H](Cc1c[nH]c2ccccc12)C(=O)N[C@@H](CC(C)C)C(=O)N[C@H](C(=O)N[C@@H](CCCCN)C(=O)NCC(=O)N[C@@H](CCCNC(=N)N)C(N)=O)C(C)C | Glucagon-like peptide 1 receptor (GLP1R, Homo sapiens, UniProt P43220) | cAMP production, agonist, GloSensor luminescence | HEK293 | 15 min | baseline: GLP-1 | efficacy | 97 ± 3%
C=CC(=O)N1CCCC(n2c(=O)c3ncccc3n(Cc3ccc(Oc4ccccc4)cc3)c2=O)C1 (stereo not shown) | MYG1 exonuclease (MYG1, Homo sapiens, UniProt Q9HB07) | thermal proteome profiling, item: C12orf10 |  | treated |  | melting temperature | 54.2 °C and 45.1 °C

Repeated from above:
SMILES | target or system | assay | system | conditions | how to read | endpoint | result
C=CC(=O)N1CCCC(n2c(=O)c3ncccc3n(Cc3ccc(Oc4ccccc4)cc3)c2=O)C1 (stereo not shown) | MYG1 exonuclease (MYG1, Homo sapiens, UniProt Q9HB07) | thermal proteome profiling, item: C12orf10 |  | treated |  | melting temperature | 54.2 °C and 45.1 °C
O=C(NC1(O)C(=O)c2ccccc2C1=O)c1ccc(C(F)(F)F)cc1 | USP5 | enzyme activity, inhibitor |  | 17 µM |  | inhibition | 20%
